Measured values collected from several papers.
Numbered parts are unrelated; each lists some results of a single study.

Set 1 — method: RNA Bind-n-Seq; molecule type: RNA; matrix: in vitro; concentration: 365 nM; relative to: no-protein control; direction: higher = stronger binding; measurement: RBNS enrichment (R)
Target: RNA binding protein fox-1 homolog 2, RRM domain, GST-SBP tag (RBFOX2, Homo sapiens, UniProt O43251-10, residues 100-194)
Notes: natural RNA segment, single round, ends assumed
Constant ends, left off below: GGGAGUUCUACAGUCCGACGAUC … UGGAAUUCUCGGGUGCCAA
Target sequence (chain): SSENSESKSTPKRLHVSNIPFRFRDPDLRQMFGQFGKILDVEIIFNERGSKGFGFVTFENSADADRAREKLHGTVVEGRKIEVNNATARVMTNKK
CUAGACUGCGGAUUGGCGUGACAAAGCAAUGGCUGUGUCAGCUGGGCCUUCAUCCAGGAACAGACCAACAUAAACCAGCAUCUUCUACCAGUUAGCACUGUCCUCCUGGA: 4.88
CUGGUAUCUGUCUGGUAGCAGUGAGACCCCUUGUCUUGGUGAUCCUUACUGGGUUUCCAAGCAGAGGAGUCACAUGAUUACAAUUGCCAGUAGAGUUGUUGUUUGGGGUA: 0.259
CCUUUGCUAAACCAGAGGAUAAAAAAGGAGAGUAUGAGUACAUAAAAAUCUAUCUUUGAUACAUUUUAUUUUUAUGCCCUACUUAAUAUUUGCAUCAGUAUAAUAUAUAU: 0.315
UGAGGCCUGAGUUUUCUGGCUCUUAAAGCAUAGAUCAUUUCACCUGAUGUUUUUGAAGCAUCCUAAGUACAGUAGAGUAGAAAACUGAUUUCUUUGUUAAUUGUACACUG: 0.355
UGUGAGUUGCAACUCCUUUGUCAAACCUCUAGCUCAACUCAAAACAGUAGCAAAAUUAAUUGUGAAGUAGCAAUGAAAAUAACCUUCUGGUUGGGGGCCACCAUGAGGAA: 0.371
ACAGCGCUGGUAUGAGGAGGAGGAACCCCAGCUGCGGUGUGGUCCUGUGCACUACAGUCCAGAGGAAGGUAUCCACUGUGCAGCUGAAACAGGAGGCCACAAACAACCUA: 0.263
AGCCCAUGGAGCAGGGAUGUCACGUCUUGAAAAGCCUAUUAGAUGUUUUACAAAUUUAAUUUUGCAGAUUAUUUUAGUCUGUCAUCCAGAAAAUGUGUCAGCAUGCAUAG: 7.12
AGUCUGCUGCAAACCAGUCUGGCCAGCACAGCAACCGCCCAUUGAGGACUUUCUUAAAGCUACUGGGCUGGAGGUCCUUUCCCACUCCUUUGUCCUUUGCUUGGCCUAAG: 0.317

Set 2 — method: universal PBM; molecule type: double-stranded DNA, one strand shown; matrix: in vitro; concentration: 600 nM; direction: higher = stronger binding; measurement: E-score
Target: Sal-like protein 4, full length isoform A (SALL4, Homo sapiens, UniProt Q9UJQ4, residues 1-1053)
Chain of UniProt Q9UJQ4 (whole entry, looked up): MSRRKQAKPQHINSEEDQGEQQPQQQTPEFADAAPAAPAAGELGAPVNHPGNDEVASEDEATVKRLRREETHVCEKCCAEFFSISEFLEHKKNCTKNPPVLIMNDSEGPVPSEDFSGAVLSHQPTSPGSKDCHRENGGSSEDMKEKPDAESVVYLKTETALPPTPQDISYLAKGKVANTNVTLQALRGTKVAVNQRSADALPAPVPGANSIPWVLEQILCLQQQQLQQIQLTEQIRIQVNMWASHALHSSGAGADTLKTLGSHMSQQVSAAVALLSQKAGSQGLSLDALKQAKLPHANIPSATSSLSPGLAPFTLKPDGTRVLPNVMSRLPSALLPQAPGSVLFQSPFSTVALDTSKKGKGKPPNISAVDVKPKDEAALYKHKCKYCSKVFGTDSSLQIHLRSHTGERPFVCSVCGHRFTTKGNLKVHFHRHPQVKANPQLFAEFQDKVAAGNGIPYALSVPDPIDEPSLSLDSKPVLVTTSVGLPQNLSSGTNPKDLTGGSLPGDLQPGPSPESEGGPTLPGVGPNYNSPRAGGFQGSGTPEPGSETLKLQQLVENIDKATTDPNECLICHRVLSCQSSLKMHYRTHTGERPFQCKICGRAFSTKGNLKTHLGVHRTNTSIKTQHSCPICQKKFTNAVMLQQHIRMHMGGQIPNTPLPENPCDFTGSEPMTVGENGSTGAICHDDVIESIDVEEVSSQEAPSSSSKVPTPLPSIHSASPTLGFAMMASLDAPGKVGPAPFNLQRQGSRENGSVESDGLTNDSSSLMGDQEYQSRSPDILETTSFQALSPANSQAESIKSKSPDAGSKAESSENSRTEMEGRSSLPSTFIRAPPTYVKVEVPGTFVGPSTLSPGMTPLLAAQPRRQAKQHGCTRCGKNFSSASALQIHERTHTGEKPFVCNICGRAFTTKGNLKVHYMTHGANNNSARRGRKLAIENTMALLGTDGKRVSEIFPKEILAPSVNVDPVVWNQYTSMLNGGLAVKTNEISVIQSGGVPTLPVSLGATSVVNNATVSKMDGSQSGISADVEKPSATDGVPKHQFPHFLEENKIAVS
Notes: 8-mer, flanks averaged, mean of replicates
CGGGCTCA: -0.286
TCATCGCA: 0.134
ACTCGCGC: -0.169
AAGACCGG: -0.312
CGGATCAC: -0.148

Set 3 — method: aptamer microarray, sandwich; molecule type: DNA with 2'F-ANA; matrix: in vitro; concentration: 200 nM; together with: Cy3 exosite-II aptamer, 400 nM; direction: higher = stronger binding; measurement: mean fluorescence intensity; strand: GGTTGGTGTGGTTGG
Target: Prothrombin, mature alpha-thrombin (F2, Homo sapiens, UniProt P00734)
Notes: whole 15-mer aptamer, many near background
2'F-ANA at 1 2 4 9 10 11 12 13 14: 49.4 a.u.
2'F-ANA at 2 3 7 9 11 13 14: 391 a.u.
2'F-ANA at 2 3 4 8 10 12 15: 302 a.u.
2'F-ANA at 2 4 5 6 7 8 9 11 14: 49.5 a.u.
2'F-ANA at 1 2 4 6 9 10 12 14: 46 a.u.
2'F-ANA at 1 2 5 6 9 10 13 15: 47.4 a.u.

Mixed results
PhoQ, residues 284 288 289 292 302 303 ALASRC — fold induction (PhoP, residues 12 14 15 18 19 GQAIL (Escherichia coli, UniProt P23836); Sort-seq, item: YFP reporter; E. coli; PhoQ-PhoP variant library, together with: 10 µM Mg2+; relative to: high Mg2+ state, higher = stronger signaling): 7.39

Excerpt of the above (set 2):
CGGGCTCA: -0.286
TCATCGCA: 0.134
ACTCGCGC: -0.169
